Literature values as cited in several papers.
Compare with care: the assays were run in different laboratories. Numbers after ± are the reported error. ≈ marks a conversion by molar mass, not a printed value.
Chain of UniProt Q96L34 (whole entry, looked up): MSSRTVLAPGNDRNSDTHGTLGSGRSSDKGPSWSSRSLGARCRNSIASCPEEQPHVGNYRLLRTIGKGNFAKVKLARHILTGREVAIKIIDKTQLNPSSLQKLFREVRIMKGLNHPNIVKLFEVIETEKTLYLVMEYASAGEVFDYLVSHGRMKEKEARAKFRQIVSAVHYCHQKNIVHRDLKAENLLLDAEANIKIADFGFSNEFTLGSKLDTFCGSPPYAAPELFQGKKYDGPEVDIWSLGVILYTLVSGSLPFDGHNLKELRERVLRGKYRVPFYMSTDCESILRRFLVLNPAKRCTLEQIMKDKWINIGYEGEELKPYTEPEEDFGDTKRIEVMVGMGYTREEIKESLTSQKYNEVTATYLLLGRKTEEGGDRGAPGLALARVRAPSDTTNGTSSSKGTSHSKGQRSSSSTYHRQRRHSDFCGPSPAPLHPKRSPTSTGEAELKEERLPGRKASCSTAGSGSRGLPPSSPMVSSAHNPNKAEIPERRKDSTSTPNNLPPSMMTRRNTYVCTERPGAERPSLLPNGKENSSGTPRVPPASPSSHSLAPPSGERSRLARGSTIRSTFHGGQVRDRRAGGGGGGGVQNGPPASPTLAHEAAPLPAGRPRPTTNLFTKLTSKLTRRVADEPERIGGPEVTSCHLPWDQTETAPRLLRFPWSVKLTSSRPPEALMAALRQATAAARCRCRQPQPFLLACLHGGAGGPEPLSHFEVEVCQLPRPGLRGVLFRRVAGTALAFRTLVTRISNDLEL

For `Cc1c(C(=O)O)ccc2c3n(nc12)[C@@H]1[C@H](C3)N(CC2CC2)[C@@]2(C(=O)Nc3cc(Cl)ccc32)[C@H]1c1cccc(Cl)c1F`, “thrombocytopenia, grade ≥3, treatment-related” read 25.9% (human patients; dose not given, phase I trial; baseline: patients).
The EC10 of `CCCC(C)(C)C(=O)O` is reported as 663 µM (scoliosis or lordosis; zebrafish embryo; nominal concentration).
Under “dose reductions due to Neutropenia”, `Nc1ccn([C@@H]2O[C@H](CO)[C@@H](O)C2(F)F)c(=O)n1` is recorded as 16% (pancreatic cancer patients; dose not given).
The AUC(0-t) of `COc1cc2c(Oc3ccc4[nH]c(C)cc4c3F)ccnc2cc1OCC1(N)CC1` is reported as 377 ± 134 ng·h/mL (human, fasting; 5 mg).
`CC(C)(CO)c1cc2cc(NC(=O)C3(c4ccc5c(c4)OC(F)(F)O5)CC3)c(F)cc2n1C[C@@H](O)CO` gave a fraction unbound of 0.738 (microsomal incubation; CYP2C8 Ki).
With `C[C@H]1[C@@H](O)O[C@@H]2O[C@@]3(C)CC[C@H]4[C@H](C)CC[C@@H]1[C@@]24OO3` the half-life was 18 ± 6 min (rat; intravenous, 0.02 mmol/kg DHA equivalent).
`COc1ncc(-c2nc3c(n2C(C)C)[C@H](c2ccc(Cl)cc2)N(c2cc(Cl)cn(C)c2=O)C3=O)c(OC)n1` — result for “patients with related thrombocytopenia”: 24% (patients with solid tumours or lymphomas; dose not given, grade ≥3, first-in-human trials).
`CO[C@H]1/C=C/O[C@@]2(C)Oc3c(C)c(O)c4c(O)c(c(/C=N/N5CCN(C)CC5)c(O)c4c3C2=O)NC(=O)/C(C)=C\C=C\[C@H](C)[C@H](O)[C@@H](C)[C@@H](O)[C@@H](C)[C@H](OC(C)=O)[C@@H]1C`: “victim drug AUC decrease” 22% (perpetrator; human; dose not given, added: glyburide as victim drug).
The dose recovered of `CNC(=O)c1c(C)oc2cc(Oc3ncnc4cc(OC)c(OC)cc34)ccc12` is reported as 30% (feces; 5 mg radiolabelled, time not given).
`CO[C@H]1C[C@@H]2CC[C@@H](C)[C@@](O)(O2)C(=O)C(=O)N2CCCC[C@H]2C(=O)O[C@H]([C@H](C)C[C@@H]2CC[C@@H](O)[C@H](OC)C2)CC(=O)[C@H](C)/C=C(\C)[C@@H](O)[C@@H](OC)C(=O)[C@H](C)C[C@H](C)/C=C/C=C/C=C/1C` has a renal clearance of 0.018 L/h (human).
The AUC(0-24) increase of `CC1(C)CCC(CN2CCN(c3ccc(C(=O)NS(=O)(=O)c4ccc(NCC5CCOCC5)c([N+](=O)[O-])c4)c(Oc4cnc5[nH]ccc5c4)c3)CC2)=C(c2ccc(Cl)cc2)C1` is reported as 8.8 fold (human; dose not given, added: triazole antifungals (CYP3A inhibitors); baseline: without triazole).
The kinetic solubility of `C=CC(=O)Nc1cc(Nc2nccc(-c3cn(C)c4ccccc34)n2)c(OC)cc1N(C)CCN(C)C` is reported as 7 µM (≈ 3.5 µg/mL) (pH 7.4).
For `Nc1cc(C(F)(F)F)c(-c2nc(N3CCOCC3)nc(N3CCOCC3)n2)cn1`, the remaining activity was 76% (MAP/microtubule affinity-regulating kinase 4 (MARK4, Homo sapiens, UniProt Q96L34); enzyme activity; 10 µM; baseline: untreated).
`C[C@@]1(O)CCC[C@H]1n1c(=O)c(C(F)F)cc2cnc(NC3CCN(S(C)(=O)=O)CC3)nc21` gave a free Cmax of 1670 nM (mouse; oral, 50 twice daily).
With `Cc1ccc([C@@H]2O[C@H](CO)[C@@H](O)[C@H](O)[C@H]2O)cc1Cc1ccc(-c2ccc(F)cc2)s1` the AUC(0-24) was 6060 ng·h/mL (human, preserved kidney function; 100 mg, steady state, mean).
`O=C(O)CN(CCN(CC(=O)O)CC(=O)O)CCN(CC(=O)O)CC(=O)O` — result for “protonation constant (log)”: 2.46 (pH-potentiometry, item: logK5H; 0.1 M NaClO4; 25 °C).
`Oc1cc(Cl)ccc1Oc1ccc(Cl)cc1Cl` has a glucuronidation rate of 7 pmol/min/mg protein (human liver; 1 µM).
For `Nc1nc(O)c2ncn(COC(CO)CO)c2n1`, the oral bioavailability was 3.6% (rat; 10 mg/kg).
For `CC1(C)S[C@@H]2[C@H](NC(=O)[C@H](N)c3ccccc3)C(=O)N2[C@H]1C(=O)O`, the MIC was over 16 µg/mL (Enterobacter cloacae; clinical isolate RKI-No_141/15).
`CC(C)n1c(Nc2cccnc2)nc2cnc(Nc3ccc(N4CCN(C)CC4)cc3)nc21` gave an AUC(0-t) of 836 ng·h/mL (healthy human; 100 mg, single dose, median).
`CC[C@H](C)CCCCC(=O)N[C@@H](CCN)C(=O)N[C@H](C(=O)N[C@@H](CCN)C(=O)N[C@H]1CCNC(=O)[C@H]([C@@H](C)O)NC(=O)[C@H](CCN)NC(=O)[C@H](CCN)NC(=O)[C@H](CC(C)C)NC(=O)[C@@H](Cc2ccccc2)NC(=O)[C@H](CCN)NC1=O)[C@@H](C)O`: “urinary recovery median” 4.04% (patients, urine; time not given).
For `CNC(C)C1CCC(N)C(OC2C(N)CC(N)C(OC3OCC(C)(O)C(NC)C3O)C2O)O1` (stereo not drawn), the MIC was at most 0.5 µg/mL (Acinetobacter pittii; clinical isolate RKI-No_588/16).
For `Nc1ccn([C@@H]2CS[C@H](CO)O2)c(=O)n1`, the oral bioavailability was 80% (rat; 2 mg/kg).
`C=CC(=O)NC1CCN(c2ncc3ncnc(Nc4ccc(Oc5ccc6c(c5)ncn6C)c(C)c4)c3n2)CC1`: “oxidation contribution to metabolism” 48 to 62% (in vitro).

A few entries again:
`CO[C@H]1C[C@@H]2CC[C@@H](C)[C@@](O)(O2)C(=O)C(=O)N2CCCC[C@H]2C(=O)O[C@H]([C@H](C)C[C@@H]2CC[C@@H](O)[C@H](OC)C2)CC(=O)[C@H](C)/C=C(\C)[C@@H](O)[C@@H](OC)C(=O)[C@H](C)C[C@H](C)/C=C/C=C/C=C/1C` has a renal clearance of 0.018 L/h (human).
The AUC(0-24) increase of `CC1(C)CCC(CN2CCN(c3ccc(C(=O)NS(=O)(=O)c4ccc(NCC5CCOCC5)c([N+](=O)[O-])c4)c(Oc4cnc5[nH]ccc5c4)c3)CC2)=C(c2ccc(Cl)cc2)C1` is reported as 8.8 fold (human; dose not given, added: triazole antifungals (CYP3A inhibitors); baseline: without triazole).
